Assay results gathered from unrelated publications.
Each line is one published result; not all experiments were run side by side. Numbers after ± are the reported error.

For `COc1ccc(Nc2nc(Nc3ccc(OCCOCC[18F])cc3)ncc2Br)cc1`, the uptake ratio was 2.4 (ICR mice, S180 tumour; intravenous, 370 kBq, 15 min; relative to: tumour over muscle).
For `CCCCN1C(=O)c2cccc3c(NCCCN4CCOCC4)ccc(c23)C1=O`, “average fluorescence lifetime” read 5.4 ns (aqueous medium; pH 6).
With `COc1cc2c(cc1OC)CN(CCCCn1ccc3cc(OCC[18F])ccc31)C2` the brain washout was 42% (ICR mice, male; intravenous, 280 kBq, 120 min; relative to: uptake at 2 min).
`CC(C)[C@H](NC(=O)[C@@H]1CCCN1C(=O)[C@H](CCCNC(=N)N)NC(=O)[C@H](CS)NC(=O)[C@H](Cc1c[nH]c2ccccc12)NC(=O)[C@H](CCCNC(=N)N)NC(=O)[C@@H](Cc1ccccc1)NC(=O)[C@H](Cc1c[nH]cn1)NC(=O)[C@H](CCC(=O)O)NC(=O)[C@H](CS)NC(=O)[C@H](CS)NC(=O)[C@@H]1CC(=O)N[C@@H](CCCNC(=N)N)C(=O)NCC(=O)N[C@@H](CC(=O)O)C(=O)N[C@H](Cc2ccc(O)cc2)C(=O)N1)C(N)=O` [technetium-99m labelled] has a tumour-to-tissue ratio of 10.6 (C57 mice B16/F1 melanoma female; iv, 2 h, added: NDP-MSH blockade; relative to: tumour over muscle).
`C[C@H](Oc1cc(-c2cnn(C3CCN(CC[18F])CC3)c2)cnc1N)c1c(Cl)ccc(F)c1Cl` has a tracer uptake of 1.2 ± 0.5 %ID/cc (PET imaging; nude mouse, muscle; iv, 60 min post injection).
For `CCOc1ccc2c(c1)C(C)=CC(C)(C)N2c1cc(OCC)cc2c1NC(C)(C)C=C2C`, the effective dose was at least 99 mg/kg bw/day (increased liver weight, hepatosomatic index; male BALB/c mice; oral, diet, 90 days).
With `CCC(c1nnnn1Cc1cccs1)N1CCN(c2nc3cc(N)cc(F)c3s2)CC1` (stereo not shown) the aggregate size was under 30 µm (confocal laser scanning microscopy; Tris-HCl-Mg buffer; 90 µM, 5% DMSO).
`COCC1CN(C2CCN(c3cc(OC)c(Nc4ncc(Br)c(Nc5ccc6c(c5P(C)(C)=O)OCCO6)n4)cc3C)CC2)C1`: “treatment-related LDH increased, all grades” 11.1% (human patients; oral, 10 to 240 mg once daily).
The remaining compound of `COc1cc(NC(C)=O)c2c(c1O)-c1c(OC)c(OC)cc3c1C(C2)N(C)CC3` (stereo not shown) is reported as 95.8 ± 2.6% (rat heart homogenate; 0.5 µg/mL, 4 h, room temperature, short-term storage).
The recovery of `CC[C@H](C)[C@H](NC(=O)[C@H](N)Cc1ccc(O)cc1)C(=O)N[C@H]1CSSC[C@@H](C(=O)N(C)[C@H](C(N)=O)[C@@H](C)CC)NC(=O)[C@H](CCCNC(=N)N)NC(=O)[C@H](Cc2c[nH]cn2)NC(=O)[C@H](C)NC(=O)CN(C)C(=O)[C@H](Cc2c[nH]c3ccccc23)NC(=O)[C@H](CC(=O)O)NC(=O)[C@H](CCC(N)=O)NC(=O)[C@H](Cc2cn(C)c3ccccc23)NC(=O)[C@H](C(C)C)NC1=O` is reported as 99.9 ± 0.4% (UPLC-ESI-MS; cynomolgus monkey plasma; 0.18 µg/mL, 24 h, 4 °C, autosampler after SPE).
`O=C(CCCCC[N+]#[C][99Tc-5]([C]#[N+]CCCCCC(=O)N[C@H]1C(O)O[C@H](CO)[C@@H](O)[C@@H]1O)([C]#[N+]CCCCCC(=O)N[C@H]1C(O)O[C@H](CO)[C@@H](O)[C@@H]1O)([C]#[N+]CCCCCC(=O)N[C@H]1C(O)O[C@H](CO)[C@@H](O)[C@@H]1O)([C]#[N+]CCCCCC(=O)N[C@H]1C(O)O[C@H](CO)[C@@H](O)[C@@H]1O)[C]#[N+]CCCCCC(=O)N[C@H]1C(O)O[C@H](CO)[C@@H](O)[C@@H]1O)N[C@H]1C(O)O[C@H](CO)[C@@H](O)[C@@H]1O` (stereo partly shown) gave a tumour/muscle ratio of 1.79 (dynamic SPECT; nude mouse U87 MG xenograft; 5-10 min; relative to: tumour over muscle).
`Cc1cc(O)cc(O)c1C(=O)c1c2c3c(c(O)cc(C)c3oc1=O)C(=O)c1c(O)cc(O)cc1-2` has a CL/F of 12 mL/min/kg (KM mouse male, plasma; intraperitoneal, 30 mg/kg).
`[11CH3]c1ccc2nc(C3CCC3)n(-c3ccc4[nH]ncc4c3)c2n1`: “absorbed radiation dose” 1.8 µSv/MBq (human male, muscle).
With `CCCC[C@H](NC(=O)CNC(=O)CNC(=O)CN1CCN(CC(=O)O)CCN(CC(=O)O)CCN(CC(=O)O)CC1)C(=O)N[C@H]1CC(=O)NCCCC[C@@H](C(N)=O)NC(=O)[C@H](Cc2c[nH]c3ccccc23)NC(=O)[C@H](CCCNC(=N)N)NC(=O)[C@@H](Cc2ccccc2)NC(=O)[C@H](Cc2c[nH]cn2)NC1=O` [copper-64 labelled] the uptake ratio was 2.97 (female C57 mouse, B16/F1 melanoma; intravenous, 0.037 MBq, 2 h; relative to: tumour over heart).
With `CCCC[C@@H]1NC(=O)[C@@H](NC(=O)[C@H](CCC(=O)O)NC(=O)CNC(=O)CN2CCN(CC(=O)O)CCN(CC(=O)O)CCN(CC(=O)O)CC2)CCCCNC(=O)C[C@@H](C(N)=O)NC(=O)[C@H](C(C)C)NC(=O)[C@@H]2CCCN2C(=O)[C@H](CCCNC(=N)N)NC(=O)CNC(=O)[C@H](Cc2c[nH]c3ccccc23)NC(=O)[C@H](CCCNC(=N)N)NC(=O)[C@@H](Cc2ccccc2)NC(=O)[C@H](Cc2c[nH]cn2)NC(=O)[C@H](CCC(=O)O)NC1=O` [gallium-67 labelled] the tissue uptake was 0.07 ± 0.06 %ID/g (C57 mice, B16/F1 flank melanoma, skin; intravenous, 0.037 MBq/mouse, 24 h).
For `NC[C@@H](C(=O)Nc1ccc(-c2cn[nH]c2)cc1)c1ccccc1`, “unbound plasma concentration” read 0.29 ng/mL (New Zealand White rabbits, plasma; topical, 0.1 % one drop).
`Cc1ccc(OCC(=O)O)cc1` gave a t1/2 of 165 min (Sprague-Dawley rat, male, plasma; oral, 100 mg/kg/day of parent drug, day 1, 90-day repeated dosing).
`CCCC[C@H](NC(=O)[C@H](CCC(=O)O)NC(=O)CNC(=O)CN1CCN(CC(=O)O)CCN(CC(=O)O)CCN(CC(=O)O)CC1)C(=O)N[C@H]1CC(=O)NCCCC[C@@H](C(N)=O)NC(=O)[C@H](Cc2c[nH]c3ccccc23)NC(=O)[C@H](CCCNC(=N)N)NC(=O)[C@@H](Cc2ccccc2)NC(=O)[C@H](Cc2c[nH]cn2)NC1=O` [indium-111 labelled]: “tumour to skin uptake ratio” 27.5 (C57 mouse, B16/F1 melanoma; 24 h; relative to: tumour over skin).
With `O=C(NCCCN(CCCCN(CCCNC(=O)c1cccc(=O)n1[O-])C(=O)c1cccc(=O)n1[O-])C(=O)c1cccc(=O)n1[O-])c1cccc(=O)n1[O-].[89Zr+4]` the intact complex was 97.9 ± 3% (radio-TLC; PBS; 1 d, pH 7.4, 37 °C, added: Ga^3+ 10-fold excess).
For `COC1C=COC2(C)Oc3c(C)c(O)c4c(c3C2=O)C2=NC3(CCN(CC(C)C)CC3)NC2=C(NC(=O)C(C)=CC=CC(C)C(O)C(C)C(O)C(C)C(OC(=O)Nc2cnccn2)C1C)C4=O` (stereo not shown), the fAUC/MIC ratio was 89 (CD-1 mouse female, plasma; oral, 10 mg/kg).
`C[C@H](NC(=O)COC(=O)[C@H](C)NC(=O)CO)C(=O)O` has a depolymerization half-life of 45.6 min (water; pH 6, 50 °C).
The measured concentration of `Oc1ccc2ccccc2c1/N=N/c1ccc(/N=N/c2ccccc2)cc1` is reported as 5.22 µg/L (rat whole blood QC samples; 5.0 µg/L, 12 h, room temperature, short-term stability).
For `C=Cc1ccc([C@H]2C[C@@]3(C)[C@@H](CC[C@@]3(O)C(F)(F)C(F)(F)F)[C@@H]3CCC4=CC(=O)CCC4=C32)cc1`, “maximal oral bioavailability” read 54% (rat liver microsomes; 100 % absorption assumed).
For `N=C(N)NCCC[C@@H]1NC(=O)[C@H](Cc2c[nH]c3ccccc23)NC(=O)[C@@H](CC2CCCCC2)NC(=O)[C@@H]2CCCN2C(=O)[C@@H](NC(=O)CCc2ccccc2)CCCNC1=O`, “elimination rate constant” read 0.000322 s⁻¹ (C57BL/6J mice, brain; intravenous, 1 mg/kg, two-compartment model).
`CC(=O)N[C@H](C)c1cc(Cl)ccc1Cn1c(=S)[nH]c(=O)c2[nH]ccc21` gave an exposure ratio of 1.5 (Sprague-Dawley rat, female, plasma; oral, 125 mg/kg/day; relative to: rat over human 15 mg).
For `CC(=O)c1cnc(N)nc1N1CC[C@H]1c1nn2ccc(Cl)c2c(=O)n1-c1ccccc1`, the AUC was 1880 ± 112 ng·h/mL (rat Wistar female collagen-induced arthritis, plasma; oral, 0.3 mg/kg twice daily).
With `COc1cc(C(=O)COC(=O)CCCN)cc(OC)c1O` the triplet lifetime was 0.36 ns (pump-probe transient absorption; 10% acetonitrile in water).
With `CN1CCC[C@]1(C)/C=C/S(=O)(=O)NC(=O)Nc1c2c(cc3c1CCC3)CCC2` the CL/F was 1.2 L/h (human, plasma; oral, 400 mg single dose).
